Measurements pooled from the literature.
A part holds a random share of what one study measured. Positions count from the first letter of the parent shown.

Block 1
Target: RNA binding protein fox-1 homolog 2, RRM domain, GST-SBP tag (RBFOX2, Homo sapiens, UniProt O43251-10, residues 100-194)
Method: RNA Bind-n-Seq
Molecule type: RNA
Sample: in vitro
Tested at: 365 nM
Notes: natural RNA segment, single round, ends assumed
Baseline: no-protein control
Direction: higher = stronger binding
Target sequence (chain): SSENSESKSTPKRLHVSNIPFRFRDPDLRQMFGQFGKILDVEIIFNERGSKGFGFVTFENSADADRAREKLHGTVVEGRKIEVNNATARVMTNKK
Strand | RBNS enrichment (R)
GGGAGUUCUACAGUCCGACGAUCGCUAUGGGGAAGGGAGGUUGUGCGGAUCUUGACUCUAGGGCAGAACAGAUCUAACCAUGCAUUGCUAGCUCUGCUCCCAGCAUCCCUUCCCCUUCUCUCCUCCUCUGCCUUGGAAUUCUCGGGUGCCAA | 0.507
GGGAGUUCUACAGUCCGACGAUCUUGGGUACUUUAUACAAAGAAAAUUCAGCCCUACCCUGCAUAAUUUGAAGACACAGCAGAAAGGGGGCUUAGGGAUGAGGUCCUGGUUUUUCUUGUAUAAAUAGGAGUCAUGGAAUUCUCGGGUGCCAA | 0.516
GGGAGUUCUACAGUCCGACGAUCGAUCACAUCCCAGCUCUGCAUGGCCCCUGCUAAGGCUCAGGUAUAACCUCACCUUCCCUGGCUCAUCUUGGCCUUGGGGAGUUGCCUUUAGGCUUGAGUCCUCAAGCCUCUGGAAUUCUCGGGUGCCAA | 0.236
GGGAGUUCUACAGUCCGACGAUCUGUCCUGCCGCCCGGCUCAGUCGGCCAGACUUCCUCUAGGAGUGGUGCUGCUACCUUGUAUGUUUACAUAAUGCUUUAGCCCAAGGACACAUCACCAACCCAUGGACUCGUGGAAUUCUCGGGUGCCAA | 0.292
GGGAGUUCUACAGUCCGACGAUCACAGAACAAAGCCAUUCACAAGUGACCGACAGCACGUGCCGUGAGACGGGAGGUGGCUGCAGGAAGAGGAUGCCUCAGGGAUGCCGGACAUUUCCGUGUUCUAUUCCAGAUGGAAUUCUCGGGUGCCAA | 0.5
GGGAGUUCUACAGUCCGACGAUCUCUUUUUUGGGGAGGUUGGGGUCAGGGGUUGUUUCUUUGAGAUUUAAGUUUUCAUUUUUGAGGGGUAAUCACCUUCAAGUAAAACAGUAAUAGCAAGAGUGAAGGUACUUUGGAAUUCUCGGGUGCCAA | 0.543
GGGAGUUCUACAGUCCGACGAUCAGCCCAUUGGCCGAGCUCCUGGGGAGCUCCUGGGACCCUUGGCUAUGAAAAUGAGCCCUGGCUCCCACCUGUUUCUGGAAGACUGCUCCCGGCCCGCCUGCCCAGACUGAUGGAAUUCUCGGGUGCCAA | 0.519
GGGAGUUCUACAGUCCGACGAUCCAUGAAUGAAAUUAAUUCUGUCCAAGCCAGCAUGGUGGCUUCAUAUUAAGUAGUAACAGAAGUCUGAACAAUUGGAUAAAUUUGACUUCCAAGACAGCUAAACUUUUCAAUGGAAUUCUCGGGUGCCAA | 15.1
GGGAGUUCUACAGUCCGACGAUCCCACAGGCCUGAUUUUUAUAAAAAACUACCAAUGCUGAUCAAUAAAGUGGGUUUUUUUUAUAGCUUGGGUGUGGGCUGUGUUUGGGGGUGUAUAUAACACCUGUCCUGAGUGGAAUUCUCGGGUGCCAA | 0.286
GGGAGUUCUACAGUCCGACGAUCAGGCCCCAACCCUGUAAUAGGCAAGGAGGAGGAAUCAGGUGAGGCCCUGCCCCCUUUCCAUUCGUGGGGAAGAAGGCAGGAGAGAGCUGGGAAAUCACAGUUCAUCACUUUGGAAUUCUCGGGUGCCAA | 0.244
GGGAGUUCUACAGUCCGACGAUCUCCGGAGGGCGAGACUCCGGCGGAAGCAUUCCCGGGCGGGUGACCCAGCACGGUCCCUCUUGGAAUUGGAUUCGCCAUUUUAUUUUUCUUGCUGCUAAAUCACCGAGCCCUGGAAUUCUCGGGUGCCAA | 0.676
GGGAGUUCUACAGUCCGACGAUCGAUGGUUGUACAGUUUGAUUGGAGGCAUGGGGUGUAUGUGAAGUUGGAAGCCUUUGAUAGUUACUGCCUACCUUCAAUGGUGAUGAUAACAUUGUGACUCUUACUCGUUUUGGAAUUCUCGGGUGCCAA | 0.894

Block 2
Target: JUN, bZIP domain (human)
Method: DHFR protein complementation
Sample: yeast
Notes: single substitutions, most at no-binding floor
Baseline: wild-type JUN-FOS pair
Direction: higher = stronger binding
Starting sequence: JUN, bZIP domain (human); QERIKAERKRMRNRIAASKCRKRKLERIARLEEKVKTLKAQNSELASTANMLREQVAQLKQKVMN; partner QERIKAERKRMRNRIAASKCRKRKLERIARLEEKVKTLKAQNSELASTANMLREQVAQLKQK
Variant | binding fitness [natural log]
T37Y | -0.203
I28W | -0.951
L45F | -1.07
T37H | -0.0919
L59H | -1.08
E54S | -0.527
S43G | -0.299
Q55D | -0.95
Q41A | -0.273
Q55V | -0.564
R30Q | -0.112
R53H | -0.715
E33W | -0.523
A29P | -0.989
A29T | -0.359

Block 3
Target: Prothrombin, mature alpha-thrombin (F2, Homo sapiens, UniProt P00734)
Method: aptamer microarray, sandwich
Molecule type: DNA with 2'F-ANA
Sample: in vitro
Tested at: 200 nM
Notes: whole 15-mer aptamer, many near background
Added: Cy3 exosite-II aptamer, 400 nM
Direction: higher = stronger binding
Strand: GGTTGGTGTGGTTGG
Modification | mean fluorescence intensity
2'F-ANA at 2 3 4 6 7 10 11 12 13 15 | 244 a.u.
2'F-ANA at 1 4 8 9 12 14 15 | 62.9 a.u.
2'F-ANA at 6 7 11 14 | 187 a.u.
2'F-ANA at 1 6 7 9 11 12 13 | 205 a.u.
2'F-ANA at 2 6 8 14 15 | 134 a.u.
2'F-ANA at 7 9 11 14 | 183 a.u.
2'F-ANA at 1 4 5 9 11 12 13 14 15 | 47.8 a.u.
2'F-ANA at 1 3 4 6 9 10 14 15 | 54.8 a.u.
2'F-ANA at 4 5 6 8 9 13 14 15 | 43 a.u.
2'F-ANA at 2 4 5 6 11 12 | 109 a.u.
2'F-ANA at 3 4 5 6 10 14 15 | 84.7 a.u.
2'F-ANA at 6 7 9 11 13 15 | 287 a.u.
2'F-ANA at 3 4 5 6 7 10 11 12 13 14 15 | 51.1 a.u.
2'F-ANA at 1 4 7 9 10 11 12 13 14 | 46.3 a.u.
2'F-ANA at 1 4 5 6 7 8 9 11 12 14 | 46.2 a.u.
2'F-ANA at 3 9 10 12 13 | 612 a.u.
2'F-ANA at 1 4 6 7 8 10 11 14 15 | 51.9 a.u.
2'F-ANA at 1 2 3 6 9 10 12 15 | 85.2 a.u.
2'F-ANA at 2 4 9 11 13 | 177 a.u.
2'F-ANA at 2 4 5 10 11 13 | 46.5 a.u.
2'F-ANA at 3 5 6 7 8 9 10 13 | 63.1 a.u.

Block 4
Target: CEP164, C-terminal peptide (human)
Method: DHFR complementation, deep sequencing
Sample: yeast
Notes: single substitutions, model-inferred values
Baseline: wild type
Direction: higher = weaker binding
Starting sequence: PDZK1, PDZ domain 2 (human); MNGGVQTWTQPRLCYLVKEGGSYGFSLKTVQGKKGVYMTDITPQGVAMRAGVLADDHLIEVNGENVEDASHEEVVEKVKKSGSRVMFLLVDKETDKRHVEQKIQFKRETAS; partner HNRVKVYRF
Variant | binding free energy change [kcal/mol]
K33M | 0.0443
E108S | -0.137
L88A | -0.117
V85A | 1.17
K80M | 0.0331
K77N | 0.24
R97H | -0.0867
T42L | 0.0977
E19R | -0.0671
M48A | -0.216
T94N | -0.0959
K33R | 0.0468

Block 5
Target: Interferon regulatory factor 5, full length, phosphomimetic (IRF5, Homo sapiens, UniProt Q13568-2, residues 1-514, S451D/S453D/S456D/S462D)
Method: protein-binding microarray
Molecule type: double-stranded DNA, one strand shown
Sample: in vitro
Tested at: 940 nM top
Notes: 60-bp whole probe
Added: salmon DNA 0.4 mg/ml
Baseline: random background probes
Direction: higher = stronger binding
Shared flanks, not repeated: GCCTAGCAC … GTCTTGATTCGCTTGACGCTGCTG
Strand | fitted relative affinity [z-score]
TTAGAACTGAGTTTAGATTAGTGCTAG | -0.333
TGAGGACTGGGGACTGGGTTAGTGCTA | -0.588
GACGAGTTCGGGACTGGAGACGTGCTA | -0.582
GACGGTCTGGACACTGGGGACGTGCTA | -0.597
TTAGGTTTCGACGATCGGTTAGTGCTA | 8.12
ACTCCTGTACATCTATGTAGGTGCTAG | 0.156
TTAGAACTGGGGTTTTGATTAGTGCTA | 0.525
CTGTTTTTCCCCTGCACTCAGTGCTAG | 1.39
TTGTGTTTGGGCATTTTTCTAGTGCTA | -0.454
CCAGTGCTGCTTTGTCAAGAGTGCTAG | -0.577
GACGGTTTCCTTCTCCTGTCGTGCTAG | 3.88
GACGGACTCGGACTGGGGACGTGCTAG | -0.502
TTAGGTTTCCTTTCCCTTTCGTGCTAG | 1.93
TTAGGTTTCGGTTCCGGTTCGTGCTAG | 15.9
GACAGACTGGGGTTTCGGGACGTGCTA | 1.84
GACGGTATCGTCTATCGGGACGTGCTA | 3.04
AGCACTCTTCTTTTTTTTCTGTGCTAG | 1.76
TTTAAATTCTAATTAGAATTGTGCTAG | -0.297
GACGAACTGGGGACTGGAGTCGTGCTA | -0.054
GGGTCTTGCAGTATGGAAAGGTGCTAG | -0.26
CTCCACTTGTGTTTGGGCATGTGCTAG | -0.318
TCATTTCTCTTATTCTAACTGTGCTAG | 1.98

Block 6
Target: CCND2, cyclin fold, Cln2 fusion (human)
Method: yeast growth competition, sequencing
Sample: yeast
Notes: weak parent motif
Baseline: not given
Direction: higher = stronger binding
Starting sequence: PKMYT1 docking peptide (human); SFEPRNLLSLFED; partner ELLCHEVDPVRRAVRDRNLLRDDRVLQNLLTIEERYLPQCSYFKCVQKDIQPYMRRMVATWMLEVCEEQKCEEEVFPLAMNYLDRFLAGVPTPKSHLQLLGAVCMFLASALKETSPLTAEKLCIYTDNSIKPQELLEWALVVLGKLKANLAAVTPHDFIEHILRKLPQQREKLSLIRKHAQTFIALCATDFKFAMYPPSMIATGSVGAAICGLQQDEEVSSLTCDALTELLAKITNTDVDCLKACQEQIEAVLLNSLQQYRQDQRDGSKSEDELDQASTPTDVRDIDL
Variant | normalised enrichment score
L8K | 0.128
S9N | 0.118
N6W | 0.339
L7P | 0.0935
R5W | 0.109
E3V | 0.317
D13S | 0.235
D13G | 0.0905
F2M | -0.14
P4G | -0.119
E12F | 0.104
E3Y | 0.547
R5M | 0.308
N6E | -0.0426
F2D | 0.303
F11C | -0.148
F2T | 0.469
S1A | -0.0121
F11T | 0.127
L10W | 0.283
N6L | 0.311
S1Y | -0.267
E3C | -0.241
R5D | 0.0956
S9W | 0.256

Single results of other studies
Molecule | target | test | system | conditions | how to read | measurement | result
PhoQ, residues 284 288 289 292 302 303 ALSMDL | PhoP, residues 12 14 15 18 19 VQALL (Escherichia coli, UniProt P23836) | Sort-seq, refers to: YFP reporter | E. coli | PhoQ-PhoP variant library, added: 10 µM Mg2+ | baseline: high Mg2+ state, higher = stronger signaling | fold induction | 10.4

Excerpt of the above (block 6):
Variant | normalised enrichment score
L7P | 0.0935
L8K | 0.128
R5M | 0.308
S1A | -0.0121
N6L | 0.311
L10W | 0.283
F2M | -0.14
N6E | -0.0426
E3Y | 0.547
F2T | 0.469
P4G | -0.119
R5W | 0.109
